Published values gathered from unrelated publications.
Each numbered part is a random draw from the data of one study; scales do not carry over between parts. Positions count from the first letter of the parent shown.

Sample 1
Target: Ras GTPase-activating protein-binding protein 1, full length (G3BP1, Homo sapiens, UniProt Q13283)
Sequence of UniProt Q13283 (whole entry, looked up): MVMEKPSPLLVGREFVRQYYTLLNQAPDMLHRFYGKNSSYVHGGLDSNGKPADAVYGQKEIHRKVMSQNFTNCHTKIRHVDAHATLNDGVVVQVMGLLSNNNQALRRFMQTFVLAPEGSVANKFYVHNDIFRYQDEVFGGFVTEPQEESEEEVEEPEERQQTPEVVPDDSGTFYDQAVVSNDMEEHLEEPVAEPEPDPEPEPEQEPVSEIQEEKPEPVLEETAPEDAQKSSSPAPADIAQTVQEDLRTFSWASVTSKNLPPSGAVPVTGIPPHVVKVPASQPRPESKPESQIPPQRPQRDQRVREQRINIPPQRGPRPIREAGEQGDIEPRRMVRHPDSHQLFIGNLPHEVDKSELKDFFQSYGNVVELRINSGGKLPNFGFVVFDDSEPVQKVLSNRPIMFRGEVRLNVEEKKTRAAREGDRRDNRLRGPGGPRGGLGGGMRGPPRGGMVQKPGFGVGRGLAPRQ
Method: RNA Bind-n-Seq
Molecule type: RNA
Sample: in vitro
Tested at: 200 nM
Setting: whole 134-nt RNA, ends assumed
Together with: 150 mM LiCl
Relative to: input library
Direction: higher = stronger binding
All molecules: 7-deaza-guanosine replaces G
Shared flanks, not repeated: GGGAGUUCUACAGUCCGACGAUC … UGGAAUUCUCGGGUGUCAAGG
Sequence | log2 enrichment
UCAAGUCCUGUGCUACACAUCGUAUGUACCGAAUCGGUUUUUUUGGAAAGGAGGAAAGUAUUAUGUUACGCCGUUCGGAUCUGCACUUCC | 0.202
AAGUCCUGUGCUACACAUCGUAUGUACCGAAUCGGGUUUUUGGGAAAAAGGGAGGGAAAGUAUUAUGUUACGCCGUUCGGAUCUGCACUU | -0.553
ACCAUGCAGGUGGGCAUCUUUGGGAAAAAGGGCAAGGGGGGGAUAGGGAGGGGGGUAACACUUUGGGAACAGGUGGUCCCAGGUCGUUUC | 0.312
CUCAAGUCCUGUGCUACACAUCGUAUGUACCGAAUCGGUUUUUGGUUUGGUGGAAAGUAUUAUGUUACGCCGUUCGGAUCUGCACUUCCA | 0.238
UGGCUUUCACCCCCAACCAGUGACCAAAGACUUGACCACUCAAAGUCCAGCUCCCCAGAACACUGCUCGACAUGGACACCGGUGUGAUUG | 1.38
UGGCCCUGGUGGCAUCCGGGGAGGAAGAGGUGGCCUCAUGGAUCGUGGUGGUCCCGGUGGAAUGUUCAGAGGUGGCCGUGGUGGAGACAG | 0.619
AGUCCUGUGCUACACAUCGUAUGUACCGAAUCAAAUUUAAAUUUUUAAACCCCCAAAAAAGUAUUAUGUUACGCCGUUCGGAUCUGCACU | 0.597
CCUUUUUGAGAAGGCCGGACCCAUUUGGGAUCUACGUCUUAUGAUGGAUCCACUGUCCGGUCAGAAUAGAGGGUAUGCAUUUAUCACCUU | 0.294
AGUCCUGUGCUACACAUCGUAUGUACCGAAUCGGGGAAAAAAAGGGGUGGGGUGGGGAAAGUAUUAUGUUACGCCGUUCGGAUCUGCACU | -0.0138
CACAGACAACACGCACCCACACAGACACAGAGGGAAGGGGUAAAGAUGGGGACAGGGUGCACAGCAGGGCGGGGUAGGACCCCAGCCCCU | -0.406
GUCCUGUGCUACACAUCGUAUGUACCGAAUCGGAAAAAAGGGAAAAAAGGAAAAAAGGGAAAGUAUUAUGUUACGCCGUUCGGAUCUGCA | -0.339

Sample 2
Target: ABI1, truncated, D143A, DHFR fusion (Arabidopsis thaliana)
Method: DHFR PCA, deep sequencing
Sample: yeast
Setting: methotrexate growth selection, single substitutions
Together with: (+)-ABA 0.032 µM
Relative to: wild-type fitted maximum
Direction: higher = stronger binding
Starting sequence: PYL1, truncated, DHFR fusion (Arabidopsis thaliana); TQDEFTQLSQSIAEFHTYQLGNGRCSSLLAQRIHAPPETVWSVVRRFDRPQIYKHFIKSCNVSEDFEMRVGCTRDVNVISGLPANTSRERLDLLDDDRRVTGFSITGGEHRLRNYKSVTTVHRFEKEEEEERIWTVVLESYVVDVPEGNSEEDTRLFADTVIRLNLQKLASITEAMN; partner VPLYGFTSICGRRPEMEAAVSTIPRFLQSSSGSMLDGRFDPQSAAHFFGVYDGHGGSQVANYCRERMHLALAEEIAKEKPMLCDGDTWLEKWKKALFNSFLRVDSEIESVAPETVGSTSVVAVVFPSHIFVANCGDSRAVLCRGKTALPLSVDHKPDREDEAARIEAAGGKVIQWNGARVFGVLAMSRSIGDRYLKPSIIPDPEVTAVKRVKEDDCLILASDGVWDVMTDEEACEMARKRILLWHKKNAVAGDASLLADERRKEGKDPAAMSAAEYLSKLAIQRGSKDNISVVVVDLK
Substitution | relative binding score
F124K | 3.21%
F157R | 4.89%
G108V | -2.35%
V142S | 15.3%
H55N | 15%
Q2H | 37%
Y53C | -0.974%
D48K | -2.08%
R113W | 6.22%
T119K | 0.0382%
S11R | 1.8%
D92G | 3.35%
L94S | 3.95%
L91E | -2.84%
N177H | 64.2%
N61G | 0.455%

Sample 3
Target: RING finger protein unkempt homolog, zinc fingers 1-6, GST-SBP tag (UNK, Homo sapiens, UniProt Q9C0B0, residues 30-357)
Method: RNA Bind-n-Seq
Molecule type: RNA
Sample: in vitro
Tested at: not given
Setting: RNA with constant flanks, human and mouse sites, ends assumed
Relative to: input RNA pool
Direction: higher = stronger binding
Shared flanks, not repeated: GGGAGUUCUACAGUCCGACGAUC … CAACAGAGGAUUGAGCAUCA
Residues (chain): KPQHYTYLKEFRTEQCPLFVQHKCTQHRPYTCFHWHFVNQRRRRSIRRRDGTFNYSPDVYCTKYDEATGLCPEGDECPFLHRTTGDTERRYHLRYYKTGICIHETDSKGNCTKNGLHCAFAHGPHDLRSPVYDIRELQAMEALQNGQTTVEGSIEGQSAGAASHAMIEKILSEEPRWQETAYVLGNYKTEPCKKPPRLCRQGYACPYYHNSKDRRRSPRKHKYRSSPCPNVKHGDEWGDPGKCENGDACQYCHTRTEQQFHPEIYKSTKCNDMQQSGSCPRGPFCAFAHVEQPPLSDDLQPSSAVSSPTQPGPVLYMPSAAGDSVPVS
Sequence | bound/input enrichment
AUUAUUCCAUCGUUUGUGCUGAUGGACAUCCAGGCUUCUACUGUGGUCACUUACGUCUAUCAACUAAUUGGAGAUGACGUCAAAGUAGAACGAAUUGAGUAUAAAAAGUCGUAAAGCCAG | 0.225 ratio
CAGCGGCAGUCUUUCCCACCAGUGUGCACCCACAACAUGCUGGACGACUCCUCAGACCCCAUCUUGACCACCAUCCGCCGAAUUGGCCUUUUCAACAGCAGUGCCGACCGUGUGAAGGUG | 0.122 ratio
GGGUUAUAUCAAUAUAAGAACAUAUGCCAACAGGUAAACAUUAAAUCUUUAGAAGAUGUUGUUAGGGCAUAUUUGAAAUUAGCAGAGGAAAAAACAGAAGCUGCUAAAGAAGAGUCCCAA | 1.14 ratio
GACAAGUAUUUUGGCAGUGUAUGUGAACUUGAUAUCAUCUUUAAUUUUGAGAAGGCCUAUUUUAUUUUGGAUGAAUUUCUCUUGGGAGGAGAAGUUCAGGAAACAUCCAAGAAAAAUGUC | 0.256 ratio
AACAUGACUAUUACUAAUGACUACCAGCACCUGCUUGUCAAUUCCAUUGCAAACUUUUUCCGUUUGCUAUCUCAGGGAGGUGGAAAAAUCAAGGUUGAGAUUUUGAAAAUCCUUUCGAAU | 0.133 ratio
ACAAAGCAAGCAGCCUUUAAAGCUGUCCCUGAAGUGUGUCGCAUUCCGACCCACCUCUUCACUUUUAUCCAGUUUAAGAAAGACCUGAAGGAGAGCAUGAAGUGUGGCAUGUGGGGUCGC | 0.174 ratio
GAUGGGAGAAGGAUGUCUUUUCAGAAGCCUAAAGGAACCAUUGAAUAUACUGUUGAAUCAAGGGAUUCUUUGAAUAGCAUAGCCCUGAAAUUUGAUACCACACCCAAUGAACUUGUUCAG | 0.246 ratio
GGGUACGAUGUUUUGGCUAAUCCCCCAGGACCAGAAGACCCAGAUGAGGAAGAGGAUACCUAUAGCGAUUUGUUUGAGUUUGAGUUUGCUGAAAGCUCCCUCUUGCCGUGUUAUAACAUC | 1.2 ratio
AGGUUUGAAGUGAAGAUGAUGCUCAUGAACCUUAUCUCCAGAUUGGUGGGAAUUCAUGAGCUUUUCCUCUUCAAUUUCUAUCCCUUUUUGCAAAGGUUUCUGCAGCCCCACCAAAGAGAA | 0.0612 ratio
AGCAACGGAGAGCCCCACUUCCUACCAGAUGCAAUGUUUGGGCAACCAGGAGCCCUAGGUAGCACUCCAUUUCUUGGUCAGCAUGGUUUUAAUUUCUUUCCCAGUGGGAUUGACUUCUCA | 0.389 ratio
CAUCCUCACUGUAAACAGUAAUGCUAUAUGCAUGAAGCUUCUGUUUAUUGUUUUCCAUAUUUAAGGAAACAACAUCCCAUAAUAGAAAUGAGCAUGCAGGGCUAAGGCAUAUAGGAUUUU | 0.351 ratio

Sample 4
Substance: PhoQ, residues 284 288 289 292 302 303 SLSLLA
Method: Sort-seq
Item: YFP reporter
Sample: E. coli
Setting: PhoQ-PhoP variant library
Together with: 10 µM Mg2+
Relative to: high Mg2+ state
Direction: higher = stronger signaling
target | fold induction
PhoP, residues 12 14 15 18 19 QYCSL (Escherichia coli, UniProt P23836) | 4.48
PhoP, residues 12 14 15 18 19 STHWV (Escherichia coli, UniProt P23836) | 27.9
PhoP, residues 12 14 15 18 19 SHWTV (Escherichia coli, UniProt P23836) | 25.3

Sample 5
Target: CCNE2, cyclin fold, Cln2 fusion (human)
Method: yeast growth competition, sequencing
Sample: yeast
Setting: strong parent motif
Relative to: not given
Direction: higher = stronger binding
Starting sequence: GMNC docking peptide (human); KNAKRNLSSEFAN; partner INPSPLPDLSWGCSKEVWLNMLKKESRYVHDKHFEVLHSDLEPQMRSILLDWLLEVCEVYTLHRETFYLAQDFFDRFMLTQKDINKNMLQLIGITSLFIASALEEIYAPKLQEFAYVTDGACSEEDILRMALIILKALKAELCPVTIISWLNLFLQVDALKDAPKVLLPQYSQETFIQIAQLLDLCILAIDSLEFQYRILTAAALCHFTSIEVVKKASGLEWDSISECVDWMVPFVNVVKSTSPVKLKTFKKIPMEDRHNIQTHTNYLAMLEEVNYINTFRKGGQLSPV
Substitution | normalised enrichment score
N6P | 0.153
N6Q | 0.531
F11L | 1.02
N6S | 0.513
N2S | 1.83
L7E | 0.311
A3F | 1.37
A12K | 1.05
K4M | 0.512
N6L | -0.18
F11T | 0.823
A3H | 0.709
S8G | 0.752
N2V | 0.768
L7A | 0.678
A3V | 3.09

For quick reference, copied from above (sample 5):
Substitution | normalised enrichment score
N2S | 1.83
L7E | 0.311
A3F | 1.37
A12K | 1.05
K4M | 0.512
N6L | -0.18
F11T | 0.823
A3H | 0.709
